Measurements pooled from the literature.
Lines come from different studies, so protocols differ. Numbers after ± are the reported error.

By UniProt entry, the sequences of proteins in these tests, tags left out. Residues count along the entry.
UniProt H0V073, 1-176: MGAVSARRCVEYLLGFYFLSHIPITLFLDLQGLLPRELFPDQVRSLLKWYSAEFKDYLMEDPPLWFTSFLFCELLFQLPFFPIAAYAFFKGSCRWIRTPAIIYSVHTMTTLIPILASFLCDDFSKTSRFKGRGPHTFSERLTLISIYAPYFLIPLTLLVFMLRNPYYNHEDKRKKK
UniProt P06276, whole entry, looked up: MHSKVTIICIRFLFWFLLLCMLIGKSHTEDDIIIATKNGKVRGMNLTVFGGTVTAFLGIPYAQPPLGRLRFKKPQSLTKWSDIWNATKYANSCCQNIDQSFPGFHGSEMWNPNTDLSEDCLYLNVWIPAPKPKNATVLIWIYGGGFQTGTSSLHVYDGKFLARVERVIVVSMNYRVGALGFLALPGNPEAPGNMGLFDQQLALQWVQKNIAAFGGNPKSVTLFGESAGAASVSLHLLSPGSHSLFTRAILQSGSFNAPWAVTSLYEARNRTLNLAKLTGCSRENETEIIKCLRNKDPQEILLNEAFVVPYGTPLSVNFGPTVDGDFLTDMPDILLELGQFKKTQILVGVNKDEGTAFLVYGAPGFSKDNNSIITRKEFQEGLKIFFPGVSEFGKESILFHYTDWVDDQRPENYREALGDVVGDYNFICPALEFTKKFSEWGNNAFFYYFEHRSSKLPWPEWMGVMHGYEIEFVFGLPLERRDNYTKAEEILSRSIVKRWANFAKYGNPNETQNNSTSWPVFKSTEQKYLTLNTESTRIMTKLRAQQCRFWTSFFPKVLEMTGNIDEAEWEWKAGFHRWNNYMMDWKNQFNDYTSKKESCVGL
UniProt P43144, 26-479 limits assumed: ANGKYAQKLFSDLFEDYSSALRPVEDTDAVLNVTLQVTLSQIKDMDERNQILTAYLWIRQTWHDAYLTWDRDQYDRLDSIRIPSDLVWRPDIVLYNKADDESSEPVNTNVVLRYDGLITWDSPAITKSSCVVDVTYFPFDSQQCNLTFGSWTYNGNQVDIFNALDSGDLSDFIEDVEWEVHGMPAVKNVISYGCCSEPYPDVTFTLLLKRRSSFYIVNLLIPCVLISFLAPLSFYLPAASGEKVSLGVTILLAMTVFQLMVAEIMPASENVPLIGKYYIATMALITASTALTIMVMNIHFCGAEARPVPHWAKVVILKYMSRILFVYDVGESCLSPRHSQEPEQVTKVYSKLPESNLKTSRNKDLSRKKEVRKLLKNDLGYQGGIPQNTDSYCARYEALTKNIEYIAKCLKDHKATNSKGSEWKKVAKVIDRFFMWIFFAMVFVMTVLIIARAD
UniProt Q9JLB5, 25-447 limits assumed: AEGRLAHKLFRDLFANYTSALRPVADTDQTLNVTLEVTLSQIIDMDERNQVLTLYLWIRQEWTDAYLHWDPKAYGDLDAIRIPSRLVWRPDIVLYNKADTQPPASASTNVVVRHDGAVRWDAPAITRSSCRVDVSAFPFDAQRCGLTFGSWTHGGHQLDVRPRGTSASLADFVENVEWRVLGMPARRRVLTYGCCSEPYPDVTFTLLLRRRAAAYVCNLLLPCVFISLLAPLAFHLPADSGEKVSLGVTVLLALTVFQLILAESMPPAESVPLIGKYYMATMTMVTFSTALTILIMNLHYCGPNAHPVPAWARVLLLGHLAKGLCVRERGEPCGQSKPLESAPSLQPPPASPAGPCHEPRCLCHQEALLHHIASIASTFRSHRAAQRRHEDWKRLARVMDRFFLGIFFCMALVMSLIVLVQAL
UniProt P10959, 19-549 limits assumed: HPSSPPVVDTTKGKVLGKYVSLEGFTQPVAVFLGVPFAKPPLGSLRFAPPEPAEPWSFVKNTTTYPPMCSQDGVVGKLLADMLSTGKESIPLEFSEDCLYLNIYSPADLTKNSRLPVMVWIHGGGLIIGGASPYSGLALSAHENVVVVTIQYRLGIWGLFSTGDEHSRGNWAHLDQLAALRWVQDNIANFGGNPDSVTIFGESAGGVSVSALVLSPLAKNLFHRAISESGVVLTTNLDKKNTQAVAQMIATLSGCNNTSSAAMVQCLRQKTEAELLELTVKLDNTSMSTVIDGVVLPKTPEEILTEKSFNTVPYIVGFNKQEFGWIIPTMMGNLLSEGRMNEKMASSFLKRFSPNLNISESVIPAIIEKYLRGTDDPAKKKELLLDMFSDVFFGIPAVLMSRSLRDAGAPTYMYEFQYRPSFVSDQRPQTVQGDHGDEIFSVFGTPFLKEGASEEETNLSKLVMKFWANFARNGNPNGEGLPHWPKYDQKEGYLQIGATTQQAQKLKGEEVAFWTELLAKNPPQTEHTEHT
UniProt P0DKX7, 1-373 limits assumed: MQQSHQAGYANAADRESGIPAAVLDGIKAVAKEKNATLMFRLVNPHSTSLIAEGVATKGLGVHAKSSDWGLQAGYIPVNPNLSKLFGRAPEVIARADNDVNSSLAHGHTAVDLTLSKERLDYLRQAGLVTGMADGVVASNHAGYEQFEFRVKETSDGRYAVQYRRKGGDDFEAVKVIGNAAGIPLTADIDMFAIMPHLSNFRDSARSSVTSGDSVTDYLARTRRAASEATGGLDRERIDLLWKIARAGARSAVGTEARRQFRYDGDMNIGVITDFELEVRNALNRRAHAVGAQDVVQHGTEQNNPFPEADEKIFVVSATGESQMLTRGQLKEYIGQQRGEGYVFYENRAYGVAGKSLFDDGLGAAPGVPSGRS
UniProt Q8NER1, whole entry: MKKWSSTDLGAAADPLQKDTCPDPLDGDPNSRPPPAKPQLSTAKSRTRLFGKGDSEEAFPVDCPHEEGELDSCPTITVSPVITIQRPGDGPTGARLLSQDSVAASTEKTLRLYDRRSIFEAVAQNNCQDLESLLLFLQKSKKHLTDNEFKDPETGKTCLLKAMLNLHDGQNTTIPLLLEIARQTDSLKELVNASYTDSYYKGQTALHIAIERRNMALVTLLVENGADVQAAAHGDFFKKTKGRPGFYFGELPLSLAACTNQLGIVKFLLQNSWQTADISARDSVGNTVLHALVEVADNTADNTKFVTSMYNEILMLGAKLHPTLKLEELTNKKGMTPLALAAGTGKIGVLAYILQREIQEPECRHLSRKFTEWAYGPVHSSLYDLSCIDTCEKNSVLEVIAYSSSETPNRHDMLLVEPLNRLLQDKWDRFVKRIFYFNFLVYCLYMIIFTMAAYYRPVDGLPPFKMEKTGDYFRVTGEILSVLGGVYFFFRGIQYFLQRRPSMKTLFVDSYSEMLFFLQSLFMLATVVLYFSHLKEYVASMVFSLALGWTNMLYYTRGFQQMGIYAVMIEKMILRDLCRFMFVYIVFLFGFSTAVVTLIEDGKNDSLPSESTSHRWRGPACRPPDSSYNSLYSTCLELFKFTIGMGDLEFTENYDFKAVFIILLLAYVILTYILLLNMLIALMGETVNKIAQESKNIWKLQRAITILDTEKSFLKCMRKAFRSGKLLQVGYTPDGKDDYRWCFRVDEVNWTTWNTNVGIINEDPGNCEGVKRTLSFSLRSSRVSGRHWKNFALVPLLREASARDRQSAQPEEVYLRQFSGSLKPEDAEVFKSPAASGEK
UniProt Q2UCU3, 19-1005 limits assumed: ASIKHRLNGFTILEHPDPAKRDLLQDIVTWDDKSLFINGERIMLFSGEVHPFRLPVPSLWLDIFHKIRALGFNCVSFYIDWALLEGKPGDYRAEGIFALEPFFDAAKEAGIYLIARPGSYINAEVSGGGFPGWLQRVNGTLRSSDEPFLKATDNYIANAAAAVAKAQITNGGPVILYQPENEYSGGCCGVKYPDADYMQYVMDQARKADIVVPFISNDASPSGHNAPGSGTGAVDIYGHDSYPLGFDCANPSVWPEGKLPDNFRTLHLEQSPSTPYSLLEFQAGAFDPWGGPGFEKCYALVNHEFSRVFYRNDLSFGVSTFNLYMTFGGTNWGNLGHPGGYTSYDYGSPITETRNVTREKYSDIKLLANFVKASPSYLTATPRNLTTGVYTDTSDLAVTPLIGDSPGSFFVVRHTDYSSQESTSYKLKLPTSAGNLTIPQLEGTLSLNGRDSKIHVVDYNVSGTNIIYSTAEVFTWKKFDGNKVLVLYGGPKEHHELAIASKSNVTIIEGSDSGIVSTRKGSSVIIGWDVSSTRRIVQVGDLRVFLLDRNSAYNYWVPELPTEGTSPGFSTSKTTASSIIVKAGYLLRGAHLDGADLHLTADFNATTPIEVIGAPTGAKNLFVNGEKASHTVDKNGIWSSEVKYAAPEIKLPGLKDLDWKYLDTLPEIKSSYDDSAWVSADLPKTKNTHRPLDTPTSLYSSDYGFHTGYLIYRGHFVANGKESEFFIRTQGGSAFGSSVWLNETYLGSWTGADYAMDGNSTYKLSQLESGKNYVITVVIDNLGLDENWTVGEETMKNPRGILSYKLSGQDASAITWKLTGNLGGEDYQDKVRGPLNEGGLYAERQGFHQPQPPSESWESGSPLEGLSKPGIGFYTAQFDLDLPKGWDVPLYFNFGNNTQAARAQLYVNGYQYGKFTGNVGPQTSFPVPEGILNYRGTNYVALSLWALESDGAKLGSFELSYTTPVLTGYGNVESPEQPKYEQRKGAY
UniProt P09884, whole entry: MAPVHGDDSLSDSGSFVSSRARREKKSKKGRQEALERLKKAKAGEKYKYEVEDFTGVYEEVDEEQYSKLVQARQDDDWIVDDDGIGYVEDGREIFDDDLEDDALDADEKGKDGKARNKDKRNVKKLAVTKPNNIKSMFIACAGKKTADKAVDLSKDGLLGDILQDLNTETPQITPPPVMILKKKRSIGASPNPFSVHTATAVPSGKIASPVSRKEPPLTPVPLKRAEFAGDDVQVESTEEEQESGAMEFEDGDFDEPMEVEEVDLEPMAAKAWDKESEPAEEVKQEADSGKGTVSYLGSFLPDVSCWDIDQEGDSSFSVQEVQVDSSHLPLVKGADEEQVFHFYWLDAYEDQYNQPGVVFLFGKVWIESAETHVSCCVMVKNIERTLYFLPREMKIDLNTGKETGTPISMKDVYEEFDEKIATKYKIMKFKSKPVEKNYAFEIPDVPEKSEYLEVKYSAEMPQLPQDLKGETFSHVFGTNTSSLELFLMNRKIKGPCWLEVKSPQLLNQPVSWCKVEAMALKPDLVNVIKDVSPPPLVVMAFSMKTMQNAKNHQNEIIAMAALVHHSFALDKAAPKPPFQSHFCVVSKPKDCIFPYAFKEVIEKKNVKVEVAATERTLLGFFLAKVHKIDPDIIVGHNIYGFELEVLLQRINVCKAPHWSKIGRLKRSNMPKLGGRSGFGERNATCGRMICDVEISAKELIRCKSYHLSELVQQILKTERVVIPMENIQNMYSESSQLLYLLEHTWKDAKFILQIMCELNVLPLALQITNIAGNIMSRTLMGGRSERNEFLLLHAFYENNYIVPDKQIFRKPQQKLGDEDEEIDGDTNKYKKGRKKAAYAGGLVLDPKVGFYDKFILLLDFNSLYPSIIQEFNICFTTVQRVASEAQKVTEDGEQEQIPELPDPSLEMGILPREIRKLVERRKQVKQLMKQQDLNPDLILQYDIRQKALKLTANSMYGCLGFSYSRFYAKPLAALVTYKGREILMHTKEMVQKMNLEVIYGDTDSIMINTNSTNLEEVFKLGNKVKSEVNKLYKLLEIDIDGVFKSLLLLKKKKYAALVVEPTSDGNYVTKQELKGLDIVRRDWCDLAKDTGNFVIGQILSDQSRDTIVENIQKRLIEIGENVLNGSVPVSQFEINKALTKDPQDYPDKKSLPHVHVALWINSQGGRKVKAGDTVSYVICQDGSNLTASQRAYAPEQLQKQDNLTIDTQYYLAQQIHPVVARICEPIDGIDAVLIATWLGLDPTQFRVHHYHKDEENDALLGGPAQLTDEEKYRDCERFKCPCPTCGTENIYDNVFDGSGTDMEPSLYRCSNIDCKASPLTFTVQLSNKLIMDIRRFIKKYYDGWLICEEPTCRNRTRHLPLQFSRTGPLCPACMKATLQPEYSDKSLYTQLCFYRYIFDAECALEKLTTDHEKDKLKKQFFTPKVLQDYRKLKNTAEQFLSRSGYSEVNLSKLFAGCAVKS
UniProt P20035, whole entry: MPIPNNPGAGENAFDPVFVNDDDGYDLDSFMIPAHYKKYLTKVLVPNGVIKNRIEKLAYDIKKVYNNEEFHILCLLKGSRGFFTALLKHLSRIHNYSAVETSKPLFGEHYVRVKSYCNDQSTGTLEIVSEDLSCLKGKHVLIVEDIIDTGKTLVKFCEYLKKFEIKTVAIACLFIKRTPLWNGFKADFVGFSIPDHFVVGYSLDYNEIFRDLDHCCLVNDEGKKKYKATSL
UniProt P54292, whole entry: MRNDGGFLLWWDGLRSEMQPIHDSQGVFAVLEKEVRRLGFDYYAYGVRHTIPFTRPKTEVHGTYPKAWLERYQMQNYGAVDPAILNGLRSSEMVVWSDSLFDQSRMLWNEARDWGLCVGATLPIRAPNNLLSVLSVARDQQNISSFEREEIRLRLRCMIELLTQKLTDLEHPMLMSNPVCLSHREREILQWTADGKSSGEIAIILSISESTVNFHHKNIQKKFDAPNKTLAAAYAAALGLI
UniProt Q3XYE8, 1-234: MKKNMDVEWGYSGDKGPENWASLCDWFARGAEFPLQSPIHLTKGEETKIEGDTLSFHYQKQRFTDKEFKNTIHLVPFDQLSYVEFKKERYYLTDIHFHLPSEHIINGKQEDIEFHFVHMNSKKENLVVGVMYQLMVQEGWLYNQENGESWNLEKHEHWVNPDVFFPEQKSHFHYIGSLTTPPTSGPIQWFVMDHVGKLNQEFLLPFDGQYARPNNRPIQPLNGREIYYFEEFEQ

`COc1ccc(CCN(C)CCCCNC(=O)c2cc(Br)cc(OC)c2OC)cc1OC` has a Ki of 2130 ± 240 nM (Sigma-2 receptor (Cavia porcellus, UniProt H0V073); binding; brain membranes; (+)-pentazocine masking, with: [3H]DTG 500 nM).
`CC[N+](CC)(CCNC(=O)C(=O)NCC[N+](CC)(CC)Cc1ccccc1Cl)Cc1ccccc1Cl` gave an IC50 of 6800 ± 1100 nM (Cholinesterase (BCHE, Homo sapiens, UniProt P06276); enzyme activity, inhibitor).
With `CC[C@H](C)[C@@H]1NC(=O)[C@H](CCC(=O)O)NC(=O)[C@@H]2CCCN2C(=O)[C@H](Cc2c[nH]cn2)NC(=O)[C@H](CCCNC(=N)N)NC(=O)[C@H](C(C)C)NC(=O)[C@H](CC(N)=O)NC(=O)[C@@H]2CSSC[C@H](NC(=O)CN)C(=O)N[C@@H](CSSC[C@@H](C(N)=O)NC1=O)C(=O)N[C@@H](CO)C(=O)N[C@@H](Cc1c[nH]cn1)C(=O)N1CCC[C@H]1C(=O)N[C@@H](C(C)C)C(=O)N2` the IC50 was > 10000 nM (Nicotinic acetylcholine receptor alpha9/alpha10 (Rattus norvegicus, UniProt P43144+Q9JLB5); ion current, antagonist, two-electrode voltage clamp; Xenopus oocytes; rat, with: ACh 100 µM).
With `COP(=O)(OC)Oc1ccc([N+](=O)[O-])cc1Cl` the IC50 was 61 nM (Carboxylesterase 1C (Ces1c, Rattus norvegicus, UniProt P10959); enzyme activity, inhibitor; rat, postnatal day 12, rat serum; with: p-nitrophenyl valerate).
`CCOC(=O)c1c(-c2ccc(Cl)cc2Cl)n(-c2nc(-c3ccc(Cl)cc3)c3c(NC(=O)c4ccccc4)nnc-3[nH]2)[nH]c1=O` gave a CC50 of > 100000 nM (PC-3; SRB).
With `N=C(N)c1ccc(C(NC(=O)COCC(=O)NCCCOCCOCCOCCCNC(=O)CCCC[C@@H]2SC[C@@H]3NC(=O)N[C@@H]32)P(=O)(Oc2ccccc2)Oc2ccccc2)cc1` (stereo partly drawn) the IC50 was 3500 ± 600 nM (Suppressor of tumorigenicity 14 protein (ST14, Homo sapiens, UniProt Q9Y5Y6); enzyme activity, inhibitor, fluorogenic substrate; 4 h preincubation, pH 8.0, with: 0.2 nM enzyme, spectrafluor-tPA substrate).
The Ki of `CNc1ccccc1C(=O)O[C@H]1[C@@H](O)[C@H](n2cnc3c(=O)[nH]cnc32)O[C@@H]1COP(=O)(O)OP(=O)(O)OP(=O)(O)O` is reported as 1000 ± 40 nM (cya, adenylate cyclase domain (Bordetella pertussis, UniProt P0DKX7); inhibitor).
The Ki of `CCCCC(CCCC)Oc1nc(C(F)(F)F)ccc1CNC(=O)C(C)c1ccc(NS(C)(=O)=O)c(F)c1` (stereo not drawn) is reported as 0.5 nM (Transient receptor potential cation channel subfamily V member 1 (TRPV1, Homo sapiens, UniProt Q8NER1); ion current, antagonist, FLIPR; CHO cells expressing TRPV1; with: capsaicin).
The viability of `CCOc1ccc(C2C(C#N)=C(N)Oc3c2c(C)nn3-c2ccc(Cl)cc2)cc1` (stereo not drawn) is reported as 47% (Vero E6; MTT; 25 µM).
For `OC[C@H]1NC(=NCCCc2ccccc2)[C@H](O)[C@@H](O)[C@H]1O`, the Ki was 11.8 nM (lacA (Aspergillus oryzae, UniProt Q2UCU3); inhibitor, nitrophenyl galactoside hydrolysis; pH 5.00, with: substrate 2d).
For `Cc1cn([C@@H]2CC[C@H](OC(C(=O)O)P(=O)(O)O)C2)c(=O)[nH]c1=O` (relative stereo), the IC50 was 229000 ± 27000 nM (DNA polymerase alpha catalytic subunit (POLA1, Homo sapiens, UniProt P09884); enzyme activity, inhibitor; with: activated calf thymus DNA).
`O=c1[nH]cnc2c(CNCCCP(=O)(O)O)c[nH]c12` has a Ki of 10 nM (Hypoxanthine-guanine-xanthine phosphoribosyltransferase (Plasmodium falciparum, UniProt P20035); enzyme activity, competitive inhibitor, spectrophotometric).
For `O=C(N[C@H]1CCOC1=O)C1CCCC1`, the EC50 was 1580 nM (HTH-type quorum-sensing regulator RhlR (rhlR, Pseudomonas aeruginosa, UniProt P54292); reporter gene, agonist, rhlI-lacZ reporter; Escherichia coli reporter strain).
For `N#Cc1c(-c2ccc(Cl)cc2Cl)n(-c2nc(-c3ccc(Cl)cc3)c3c(NC(=O)c4ccccc4)nnc-3[nH]2)[nH]c1=O`, the CC50 was > 100000 nM (UACC-62; SRB).
`NCCCCCC(=O)Nc1nnc(S(N)(=O)=O)s1` has a Ki of 25.9 nM (alpha-carbonic anhydrase (Enterococcus faecium, UniProt Q3XYE8); CO2 hydration, inhibitor, stopped-flow kinetics).

Repeated from above:
With `CC[C@H](C)[C@@H]1NC(=O)[C@H](CCC(=O)O)NC(=O)[C@@H]2CCCN2C(=O)[C@H](Cc2c[nH]cn2)NC(=O)[C@H](CCCNC(=N)N)NC(=O)[C@H](C(C)C)NC(=O)[C@H](CC(N)=O)NC(=O)[C@@H]2CSSC[C@H](NC(=O)CN)C(=O)N[C@@H](CSSC[C@@H](C(N)=O)NC1=O)C(=O)N[C@@H](CO)C(=O)N[C@@H](Cc1c[nH]cn1)C(=O)N1CCC[C@H]1C(=O)N[C@@H](C(C)C)C(=O)N2` the IC50 was > 10000 nM (Nicotinic acetylcholine receptor alpha9/alpha10 (Rattus norvegicus, UniProt P43144+Q9JLB5); ion current, antagonist, two-electrode voltage clamp; Xenopus oocytes; rat, with: ACh 100 µM).
For `N#Cc1c(-c2ccc(Cl)cc2Cl)n(-c2nc(-c3ccc(Cl)cc3)c3c(NC(=O)c4ccccc4)nnc-3[nH]2)[nH]c1=O`, the CC50 was > 100000 nM (UACC-62; SRB).
